Measurements pooled from the literature.
Lines come from different studies, so protocols differ. “And” joins repeats or separate records; there may be more than shown. Numbers after ± are the reported error.

With O=c1[nH]c(=O)n([C@H]2C[C@H](O)[C@@H](CO)O2)cc1CCCC[18F] the biodistribution was 0.24 ± 0.05 %ID/g (male CD-1 nu/nu mice, RG2 tumour, spleen; intravenous, dose not given, 2 h).
Under “central volume of distribution”, CCC(=O)O[C@]1(C(=O)SCF)[C@H](C)C[C@H]2[C@@H]3C[C@H](F)C4=CC(=O)C=C[C@]4(C)[C@@]3(F)[C@@H](O)C[C@@]21C is recorded as 0.63 ± 0.16 L/kg (three-compartment model; rat, plasma; intravenous, 90 nmol/kg).
Cc1ccc([C@@H]2O[C@H](CO)[C@@H](O)[C@H](O)[C@H]2O)cc1Cc1ccc(-c2ccc(F)cc2)s1 — result for “urinary chloride excretion change”: -21.8 mEq (Japanese type 2 diabetes patients; 400 mg, day 4, 24 h urine collection; reference: baseline).
NC1(C(=O)N[C@@H](CCO)c2ccc(Cl)cc2)CCN(c2nc[nH]c3nccc2-3)CC1 — result for “incidence of Neutropenia”: 0% (metastatic CRPC patients; 320 mg b.i.d., grade 3 to 4, treatment-related, together with: enzalutamide 160 mg daily).
CC(C)(C(=O)N1CCOc2c(C#N)cncc2C1)C(F)F — result for “subjects with cardiac disorder TEAE”: 16.7% (human, both sexes; oral, 10 mg single dose).
The SUV of [18F]c1ccc(-c2ccc3c(c2)[nH]c2ccncc23)cn1 is reported as 0.976 ± 0.171 (ex vivo biodistribution; APP/PS1 mouse, AD model, lungs; intravenous, 30 min).
CN1CCN(C(=O)CN(C)S(=O)(=O)c2ccc3ccccc3c2)CC1 has a solubility of 971 µg/mL (aqueous buffer; pH 7.4).
For Cn1cnc2ccc(Nc3c(F)ccc(NS(=O)(=O)N4CC(F)C4)c3Cl)c(Cl)c2c1=O, “patients with headache” read 0% (refers to: headache grade ≥3; human patients; dose not given, monotherapy trial; reference: patients).
O=C(Nc1cc(C2CCCCC2)[nH]n1)c1ccc(Br)cc1 has a solubility of less than 3.73 µg/mL (aqueous buffer; pH 7.4).
CCn1cc(C(=O)N2CCOCC2)c(=O)c2cc(NC3Cc4ccccc4C3)cnc21 — result for “patients with adverse event”: 11.8% (human, GAD, PTSD or social anxiety disorder; dose not given, TEAE Headache, pooled phase trials).
For CCO[C@H]1CCN(Cc2c(OC)cc(C)c3[nH]ccc23)[C@H](c2ccc(C(=O)O)cc2)C1, the total half-life was 1460 min (human moderate hepatic impairment, plasma; oral, 200 mg single dose, geometric mean).
Under “lymphocyte count decrease TEAE”, COc1ccc([C@@H](O)c2cc(-c3ncnc4cc(N5CCOCC5)ccc34)c(F)cc2Cl)nn1 is recorded as 33% (locally advanced rectal cancer patients; 100 mg, together with: capecitabine and radiotherapy).
O=C1CC[C@H](N2Cc3cc(N4CCN(CC5CCN(c6ccc([C@@H]7c8ccc(O)cc8CC[C@@H]7c7ccccc7)cc6)CC5)CC4)ccc3C2=O)C(=O)N1: “parent drug share of faecal radioactivity” 60% (Sprague-Dawley rat, faeces; oral, 20 mg/kg).
The solubility of COC(=O)c1ccc([C@@H]2COC[C@H](c3ccc(CN4CCOCC4)cc3)N2)cc1 is reported as greater than 750 µM (shake-flask, LC-HRMS; aqueous buffer; 16 h, pH 6.8).
Cn1c(COc2cccc3cccnc23)nnc1SCC(N)=O gave a solubility of 161 µg/mL (aqueous buffer; pH 7.4).
The renal clearance of CN[C@@H](C)C(=O)N[C@H]1CN(C(=O)CC(C)C)CC[C@H]2CC[C@@H](C(=O)NC(c3ccccc3)c3ccccc3)N2C1=O is reported as 0.127 mL/min (unchanged drug recovered; SCID mice, MDA-MB-231 xenograft, urine).
The AUC(0-t) of CN1CCC[C@H](CN2c3ccccc3Sc3ccccc32)C1.Cl is reported as 51900 ng·h/mL (ICR mouse female fasted, lung; oral, 16 mg/kg).
Under “cortisol level change”, N#Cc1ccc2c(c1)[C@H]1CCCN(C(=O)c3ccc4[nH]cnc4c3)[C@H]1C2 is recorded as -102 nmol/L (human; 40 mg, end of trial; reference: baseline).
For CC(C)(C)C[C@@H]1COC[C@H](c2ccc(C#N)cc2)N1, the solubility was greater than 442 µM (shake-flask from DMSO stock; aqueous buffer; 16 h, pH 6.8, LC-HRMS quantitation).
With CCCOc1ccc(-c2ccc(C#N)cc2)cc1 the placental accumulation was 29.1 ± 39.4 ng/g (Sprague-Dawley rat, female, placenta; 10 ng/mL in perfusate, 50 (unit not given), low dose, mixture of 21 LCMs).
NC(=O)N1c2ccccc2C=Cc2ccccc21 — result for “adverse events incidence”: 73% (refers to: total adverse events; human male; oral, dose not given, CTCAE on-treatment AEs).
For C[C@H]1CN(C(=O)CC#N)[C@]12CCN(c1ncnc3[nH]ccc13)C2, the Tmax, mean was 1 h (healthy adults, plasma; oral, 3 mg single dose).
CC(C(=O)NCC(=O)NCC(CNC(=O)CNC(=O)C(C)N1CCN(CC(=O)[O-])CCN(CC(=O)[O-])CCN(CC(=O)[O-])CC1)(CNC(=O)CNC(=O)C(C)N1CCN(CC(=O)[O-])CCN(CC(=O)[O-])CCN(CC(=O)[O-])CC1)CNC(=O)CNC(=O)C(C)N1CCN(CC(=O)[O-])CCN(CC(=O)[O-])CCN(CC(=O)[O-])CC1)N1CCN(CC(=O)[O-])CCN(CC(=O)[O-])CCN(CC(=O)[O-])CC1.[Gd+3].[Gd+3].[Gd+3].[Gd+3] (centres unmarked) — result for “cumulative urinary excretion”: 97.2% and 97% (ICP-MS; cynomolgus monkey; dose not given, 1 d 24 h, mass balance group; reference: dose).
Clc1cc(Cl)cc([C@@H]2COC[C@]3(CC[C@H](c4ccccc4)CC3)N2)c1 has a solubility of less than 4 µM (shake-flask, LC-HRMS; aqueous buffer; 16 h, pH 6.8).
Cc1ccc(Sc2ccccc2N2CCNCC2)c(C)c1: “participants with TEAE” 0% (refers to: postural dizziness; healthy adult men; oral, 20 mg daily, 12 days).
CCCC1CCC(C2CCC(c3cc(F)c(F)c(F)c3)CC2)CC1 (centres unmarked) has a placental accumulation of 262 ± 373 ng/g (rat, placenta; 5000 ng/mL in perfusate, high dose, mixture of 21 LCMs).
C=CC(=O)Nc1cc(Nc2nccc(-c3cn(C)c4ccccc34)n2)c(OC)cc1N(C)CCN(C)C gave a recovery of 98.6% (storage stability; human plasma; 2 h, on ice, HQC level).
COC(=O)c1ccccc1C1=c2cc3c4c(c2Oc2c1ccc1cccc(O)c21)CCC[N+]=4CCC3.[Cl-] has a Stokes shift of 127 nm (12.5 mM aqueous NaOH; pH 12.1, 10% DMSO).
CCCCC[C@H](O)CC[C@@H]1[C@H]2Cc3cccc(OCC(=O)O)c3C[C@H]2C[C@H]1O: “geometric mean half-life” 37.2 min (LC-MS/MS; Japanese PAH patients, plasma; inhaled, 54 µg, background ERA therapy).
COCCOc1cnc2ccn([C@H](C)c3nnc4c(F)cc(-c5cnn(C)c5)cn34)c(=O)c2c1 has a Ctrough of 0.2 µg/mL (patients, plasma; oral, 150 mg once daily, day 1 24 h postdose).
With Cc1nc(-c2ccc(OCC(C)C)c(C#N)c2)sc1C(=O)O the body weight was 28 g and 29.7 g and 31.8 g and 33.3 g and 29 g and 31.4 g (KM mouse, chronic hyperuricaemia model; dose not given, day 7).
O=C(O)CCC(=O)O.[2H]C([2H])([2H])Oc1cc(C)c2[nH]ccc2c1CN1CC[C@@H](C2CC2)C[C@H]1c1ccc(C(=O)O)cc1 has a Cmin of 1990 ng/mL (human, plasma; 200 mg once daily, day 10, multiple ascending dose, geometric mean).
The Cmin of C[C@H](CCC(=O)NCC(=O)O)[C@H]1CC[C@H]2[C@@H]3[C@H](O)C[C@@H]4C[C@H](O)CC[C@]4(C)[C@H]3C[C@H](O)[C@]12C is reported as 14.9 ± 2.1 nM (human, plasma; oral, dose not given, control).
CN1CCN(c2cccc3c2CCN(C(=O)/C=C/c2c(-n4cnnn4)ccc(Cl)c2F)[C@@H]3C(=O)Nc2ccc(C(=O)O)cc2)C(=O)C1 — result for “discontinuations due to adverse events”: 0% (healthy human subjects; intravenous infusion, 3 mg/h, 5 days).
For COc1cc2nccc(Oc3ccc(NC(=O)c4cc5c(n(-c6ccccc6)c4=O)CCCC5=O)nc3)c2cc1OC, “drug-related TEAEs leading to discontinuation” read 14.3% (patients with relapsed/refractory AML; oral, 10 mg once daily).
With Cc1cc([C@H]2C[C@H]3[C@@H](CF)SC(N)=N[C@@]3(c3ccc(F)cc3F)CO2)on1 the brain concentration was 952 nM (male 129/SVE mouse, brain; subcutaneous, 30 mg/kg, 3 h).
The solubility of Clc1cc(Cl)cc([C@H]2COC[C@H](C3CCCCC3)N2)c1 is reported as less than 4 µM (shake-flask, LC-HRMS; aqueous buffer; 16 h, pH 6.8).
CC[C@H](C)C(=O)N1CCC(NC(=O)Nc2ccc(OC(F)(F)F)c(F)c2)CC1 gave an equilibrium solubility of 37.7 mg/mL (Gelucire 44/14 melt; 75 °C).
CCOc1c([C@H](C)n2nc(C)c3c(N)ncnc32)cc(Cl)c(F)c1[C@@H]1CNC(=O)C1 gave a patients of 0% (refers to: QTcF above 500 ms; previously treated B-cell malignancy; oral, 5 mg once daily, baseline QTcF ≤450 ms).
With CCOC(=O)N1C[C@@H](c2ccc(C(C)(C)C)cc2)N[C@@H](C(CC)CC)C1 the solubility was less than 4 µM (shake-flask, LC-HRMS; aqueous buffer; 16 h, pH 6.8).
NC[C@@H]1O[C@H](O[C@H]2[C@@H](O)[C@H](O[C@@H]3[C@@H](O)[C@H](N)C[C@H](N)[C@H]3O[C@H]3O[C@H](CO)[C@@H](O)[C@H](O)[C@H]3N)O[C@@H]2CO)[C@H](N)[C@@H](O)[C@@H]1O gave a body weight of 20.4 g and 21.3 g and 23.4 g and 23.6 g and 22.2 g and 22 g and 22.4 g and 22.7 g (NSG mice; dose not given, day 2 of treatment).
C[C@@H](c1ncncc1F)[C@](O)(Cn1cncn1)c1ccc(F)cc1F: “drug-related TEAE incidence” 0% (refers to: Nausea; human; oral, 200 mg).
For Cc1c(C(=O)O)ccc2c3n(nc12)[C@@H]1[C@H](C3)N(CC2CC2)[C@@]2(C(=O)Nc3cc(Cl)ccc32)[C@H]1c1cccc(Cl)c1F, the plasma concentration was 707 nmol/L and 729 nmol/L and 445 nmol/L and 715 nmol/L and 1060 nmol/L (female BALB/c nude mice, plasma; oral, 1 mg/kg twice daily, 24 h, SJSA-1 tumour-bearing).
CN[C@@H](C)C(=O)N[C@H]1CN(S(=O)(=O)c2cccc(S(=O)(=O)N3CC[C@H]4CC[C@@H](C(=O)NC(c5ccccc5)c5ccccc5)N4C(=O)[C@@H](NC(=O)[C@H](C)NC)C3)c2)CC[C@H]2CC[C@@H](C(=O)NC(c3ccccc3)c3ccccc3)N2C1=O has an AUC(0-t) of 134 ± 3.96 ng·h/mL (LC-MS/MS; human, advanced solid tumours, plasma; intravenous, 7 mg weekly, day 1).
O=C(Nc1nc2cccc(-c3ccc(CN4CCS(=O)(=O)CC4)cc3)n2n1)C1CC1 — result for “treatment-emergent adverse events”: 0% (refers to: non-infective cystitis; rheumatoid arthritis patients; oral, 200 mg once daily, 4 weeks, any relatedness).
Cc1cc(Nc2ncnc3ccc(NC4=NC(C)(C)CO4)cc23)ccc1Oc1ccn2ncnc2c1: “drug-related adverse events” 3.6% (refers to: Gout; healthy volunteers; oral, dose not given, grade 1-2).
O=C(OC(C(F)(F)F)C(F)(F)F)N1CCN(Cc2cccc(Oc3ccccc3)c2)CC1 gave a k2 of 0.943 min⁻¹ (PET blocking study; rhesus monkey, brain CB; 0.1 mg/kg, compound pretreatment, together with: [18F]T-401 tracer).
